Results pooled from the literature.
A part holds a random share of what one study measured.

Study 1
Target: RING finger protein unkempt homolog, zinc fingers 1-6, SBP tag (UNK, Homo sapiens, UniProt Q9C0B0, residues 30-357)
UniProt Q9C0B0, sequence (30-357, looked up): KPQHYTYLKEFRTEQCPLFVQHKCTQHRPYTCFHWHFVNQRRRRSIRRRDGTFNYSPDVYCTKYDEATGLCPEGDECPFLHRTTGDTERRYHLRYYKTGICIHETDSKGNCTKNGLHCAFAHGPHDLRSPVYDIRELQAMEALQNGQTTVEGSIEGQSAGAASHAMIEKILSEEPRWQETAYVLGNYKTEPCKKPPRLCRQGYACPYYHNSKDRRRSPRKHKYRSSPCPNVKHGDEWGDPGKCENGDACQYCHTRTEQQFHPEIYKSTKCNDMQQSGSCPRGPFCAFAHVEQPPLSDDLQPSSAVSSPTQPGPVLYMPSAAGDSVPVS
Method: RNA Bind-n-Seq
Molecule type: RNA
Medium: in vitro
Concentration: 100 nM
Notes: RNA with constant flanks, vertebrate orthologous sites, ends assumed
Reference: input RNA pool
Direction: higher = stronger binding
Shared flanks, not repeated: GGGAGUUCUACAGUCCGACGAUC … CAACAGAGGAUUGAGCAUCA
| Sequence | bound/input enrichment [ratio] |
| --- | --- |
| GGAAAGUUACAGACCAGACUCUGAAAGCAGGAGUACAGGAUCCUGGUUAUCGUCAUCUUUGAGGAACAGAUGUACACCACUCUUUUCCAGAAGAAGAAGAGAAGGGAGAGAUGAAUCUGC | 0.406 |
| ACAAUAGCUUCUGCUUCACUAAGAGCGUAAAAAUAGUCCCACAAAUAUAAAACUCCUAAAGAGCUAUUUUUUAAAUAAAAUGUUUAAAUUUGAUAAAUCACUUGAUGCCACAACACAACC | 0.902 |
| GAACUAAAGGAGUUAGCAUCUUUAUUUUUGUAACAAAGAUAAAGGUUAUUUUGAAAUUAUUAGGAUUUUUACACAACUCUGAAAUCUGUUGCUUUUUUAAACAAAUCGUUUGAUCUUAGG | 0.424 |
| GUUGUGACCCAUUUAACAUACAUAAAAAACUAGCCAAAAAAAAUCUGCACGUGAUUGACUUAGAUGAUGCCACUUUUCUGAGUGCAAAAUUUGGAAGACAGCUUGUACCUGGUUGGAAAC | 1.67 |
| GGUGUUUUCAAACAAUAGGAAGCUUUUAUUGUUUCACAGUUUAGUGUCUGGUUUCUAUGUGGAAGACUAAACUCAUGCUUAUAGCUAAAGGGGUGUUUGCCAACUAAAUUUAAGAUGCAG | 0.596 |
| CUGAAGCUUUGUGUUUGGCUGCACCUGCAUAAGCUGCUACAAAUAGAAUAAAGAAUUUCAUAGCCUGUAUCUAUCAUUUAGAUGCAUGGAAAAAAAUGGGCUUUGCACACAAUGGGUUUG | 1.92 |
| AAGAUGGUGGUUGUACAUUAUUUCAUUUAGAAAAUAUAAACUUUAAUUUUGUUUUGAAGUUAGGUGUUAAACUGGAAUAGCGAUCAUACCCCGGAUAAUGGGGGCAGUUGUGCCCUUCCC | 0.953 |

Study 2
Target: Interferon regulatory factor 5, full length, phosphomimetic (IRF5, Homo sapiens, UniProt Q13568-2, residues 1-514, K96S/S451D/S453D/S456D/S462D)
Method: protein-binding microarray
Molecule type: double-stranded DNA, one strand shown
Medium: in vitro
Concentration: 250 nM
Notes: 60-bp whole probe
Added: salmon DNA 0.4 mg/ml
Reference: random background probes
Direction: higher = stronger binding
Shared flanks, not repeated: GCCTAGCAC … GTCTTGATTCGCTTGACGCTGCTG
| Sequence | log fluorescence |
| --- | --- |
| TCAACTTGTCTTTTCACACTGTGCTAG | 0.678 z-score |
| CTGCAGCCCACTCCTGAACAGTGCTAG | -0.28 z-score |
| TCACTTTGGCCTCTAGGACTGTGCTAG | -0.207 z-score |
| GACGGAATCCTTATCCTGACGTGCTAG | -0.247 z-score |
| TTAGATTACGGGTTTCGATTAGTGCTA | 6.53 z-score |
| TTGGTTCTTATCCTTCCCCTCGTGCTA | 0.239 z-score |
| TTAGTTATCGGGTATCGATTAGTGCTA | 6.59 z-score |
| AACGATTTCAGTATCGAGACGTGCTAG | 4.05 z-score |
| TTAGGTATCGGGACTGGGTCAGTGCTA | 1.69 z-score |
| TTATGACTGCTTCTCCTTTAGTGCTAG | 0.179 z-score |

Mixed results
| Molecule | target or system | test | test system | conditions | how to read | endpoint | result |
| --- | --- | --- | --- | --- | --- | --- | --- |
| ERH (Homo sapiens, UniProt P84090) | POLDIP3 (Homo sapiens, UniProt Q9BY77) | cross-linking MS | cell fractions | added: DSSO | – | cross-linked residues | K90 to K260 |
| PhoQ, residues 284 288 289 292 302 303 SSTMSV | PhoP, residues 12 14 15 18 19 LHTVL (Escherichia coli, UniProt P23836) | Sort-seq, measured: YFP reporter | E. coli | PhoQ-PhoP variant library, added: 10 µM Mg2+ | reference: high Mg2+ state, higher = stronger signaling | fold induction | 26.8 |
| DR1 (Homo sapiens, UniProt Q01658) | DRAP1 (Homo sapiens, UniProt Q14919) | cross-linking MS | cell fractions | added: DSSO | – | cross-linked residues | K23 to K63 |

For quick reference, copied from above (study 2):
| Sequence | log fluorescence |
| --- | --- |
| TTGGTTCTTATCCTTCCCCTCGTGCTA | 0.239 z-score |
| CTGCAGCCCACTCCTGAACAGTGCTAG | -0.28 z-score |
